Assay results collected from several papers.
Each numbered part is a random draw from the data of one study; scales do not carry over between parts. Changes are numbered by the printed parent chain.

Block 1
Target: CREBZF, bZIP domain (human)
Technique: DHFR protein complementation
Medium: yeast
Notes: single substitutions, most at no-binding floor
Relative to: wild-type JUN-FOS pair
Direction: higher = stronger binding
Parent: JUN, bZIP domain (human); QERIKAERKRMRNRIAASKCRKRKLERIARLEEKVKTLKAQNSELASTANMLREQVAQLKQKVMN; partner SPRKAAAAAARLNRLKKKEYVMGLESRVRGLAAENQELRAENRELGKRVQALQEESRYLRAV
Change | binding fitness [natural log]
Q55A | -1.25
A49P | -1.39
E33T | -1.51
E54N | -1.57
A49K | -1.54
E54S | -1.4
T48Q | -1.41
A40V | -1.41
E54R | -1.43
A29L | -1.51
S43M | -1.29
T37A | -1.43
L38F | -1.54

Block 2
Target: Max-binding protein MNT, bHLH-zipper, MAX partner unstated (MNT, Homo sapiens, UniProt Q99583, residues 220-300)
Technique: protein-binding microarray
Molecule type: double-stranded DNA, one strand shown
Medium: in vitro
Tested at: not given
Notes: k-mer, scored over probes, only values ≥0.25
Direction: higher = stronger binding
Construct (chain): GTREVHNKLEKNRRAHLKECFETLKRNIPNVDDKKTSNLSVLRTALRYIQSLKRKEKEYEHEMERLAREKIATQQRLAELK
Oligonucleotide | E-score
ACGCTACA | 0.251
GTGGAGCA | 0.271
CACATGTG | 0.486
AACGTGAT | 0.376
ATCACGAG | 0.37
CATGTGTA | 0.453
AGGTCACG | 0.316
CGTGGTGA | 0.348
CATGCGGC | 0.43
AAACACGC | 0.397
GAGCGTGA | 0.318
CCCACACA | 0.252
ACGCACGG | 0.253
TGCTAGCA | 0.294

Block 3
Target: TAR DNA-binding protein 43, full length, His tag (TARDBP, Homo sapiens, UniProt Q13148, residues 1-414)
Technique: RNA Bind-n-Seq
Molecule type: RNA
Medium: in vitro
Tested at: 20 nM
Notes: 6-mer, flanks averaged, single round
Added: 150 mM KCl
Relative to: input library
Direction: higher = stronger binding
Oligonucleotide | 6-mer enrichment (R)
CGGAAG | 1.56
AACUAU | 0.64
UGAUGC | 0.798
CGGGUA | 1.88
CUUAGU | 0.606
UGGCGG | 3.46
GCGGGA | 4.83
UUGCAU | 0.651
GGGAUA | 1.83
AUGACC | 0.643
AAGAUC | 0.597
UGGACG | 1.51
GUACUG | 0.87
AGUAGG | 1.5

Block 4
Target: RNA binding protein fox-1 homolog 2, RRM domain, GST-SBP tag (RBFOX2, Homo sapiens, UniProt O43251-10, residues 100-194)
Technique: RNA Bind-n-Seq
Molecule type: RNA
Medium: in vitro
Tested at: 365 nM
Notes: natural RNA segment, single round, ends assumed
Relative to: no-protein control
Direction: higher = stronger binding
Constant ends, left off below: GGGAGUUCUACAGUCCGACGAUC … UGGAAUUCUCGGGUGCCAA
Construct (chain): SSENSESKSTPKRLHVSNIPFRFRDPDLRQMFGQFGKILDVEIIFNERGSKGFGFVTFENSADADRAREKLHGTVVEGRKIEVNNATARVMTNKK
Oligonucleotide | RBNS enrichment (R)
CCUUGAUCCUCAGGCUGCACCUCUGGCAAAUGGGAGAAUGCGGCUCCUUUUGACUUCAAGGGAUCUUUGUGGGAACCAAUGAGAAAAUGUGUGUGAAGAUAGCUUUUUGG | 1.54
GAGUCUAAUGUAAUUUUGAUCAACUUGGUAAUGAUGUUAUUAAAUAGCAAAACAAGUGCAGUGUAUUAAAGCUAAACACUACAUUGAAACGCAAACAAAAUUCUGGUGAA | 0.429
GCCAGAGGGUCCCUGCCCCGAGUGACACCCCAUCCCCUCCCAUCCCCCGGCGCGUGUGUGUAGAGCCUCAGGGCUGAGUGCCCAAUAAAGGUGGCGGCAAGGCUGCGGUG | 0.343
CAACUUGGUCUUGUCAAAGAACACCGAUUCCACUCAACUAAGGCACCAGCCUGUUUCUGAGACCACAGAAGAAAACCCCAGGGAUGGAUUUAUGAACAGCUGUGUCUGCU | 0.421
UGAGAUAUCAGUGUGUUUAUUAAUAAGGAUUGCAAUAGUAUAGUGCUUAAUAUGUGCCAGGCAUAGUGCUAAGGGUUUACAUACGUUAUCCCUUUUAAUCCAGAAAACAG | 0.355
UGAAGGGCUAGAGUUUUAACUUUUAAUUUUUUAUAUUUAAAUGUAGACUUUUGACACUUUUAAAAAACAAAAAAAGACAAGAGAGAUGAAAACGUUUGAUUAUUUUCUCA | 1.23
UAUUUUUGGUAACUCCCAUGGCAGCUCCUAGGAUUUCAGCGGUCUGUGGGCCAGAAAGCAGGCACCAGGGCUGACCUCAAGGCCGUAUCAGAGGGCCAAGCAGAGUUCUU | 0.399
AUUCUCUGCUGGGCGGGUGGGGAAGCAGCUCUACCCUUCCCUACCCCUCCCUGCCCCAACUCUGACUUCGAAUAAGCCUUGGUCCUAUCCAGAAUACACUGGACACCAAG | 0.314
AAAUGUUGACUCUCCAUCCAUAGUGUUAGGGGCAGCCGUGGAAGCAGCAGCAGCCAGGGAUGUCUCUGGGCCUGGCUCUCCUGCAUGCUGUGCCCGGGGCAGGCCUGACG | 2.63
CUCCUGUUCAGUAUCCGAGUCUCGUGCAGUGCUGCGUAGGUUAGCCCGCAUCGUGCAGACAACCUCAGUCCUCUUGUCUAUUUUCUCUUGGGUUGAGCCUGUGACUUGGU | 0.582
AGCAGCAGUGGUGGCAGCCCCCCCCACAGCUGUGGGCUCCCUCUCUGGGGCAGAGGGGGUACCAGUGAGCUCUCAGCCACUUCCCUCCCAGCCUUGGUGAGCUCCAAGUU | 0.488
GUGGCACGAUCUUGGCUUACUGCAACCUCCGUCUCCCAGGUUCAAGCGAUUCUCUUGCCUCAGCCUCCAGAGUAGCUGGGAUUACAGGCGCCCGCCAUCGUGCCCAGCUA | 0.323

Block 5
Target: Histone acetyltransferase KAT6A, winged helix 2, GST fusion (KAT6A, Homo sapiens, UniProt Q92794, residues 85-181)
Technique: protein binding microarray
Molecule type: double-stranded DNA, one strand shown
Medium: in vitro
Tested at: not given
Notes: 8-mer, flanks averaged, mean of 2 arrays, mostly near background
Relative to: not given
Direction: higher = stronger binding
Residues (chain): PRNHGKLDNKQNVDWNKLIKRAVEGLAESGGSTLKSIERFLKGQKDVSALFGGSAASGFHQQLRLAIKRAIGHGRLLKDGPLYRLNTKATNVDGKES
Oligonucleotide | E-score
ACGCTATC | -0.15
CTCACAGA | -0.0041
CATCTCGG | 0.0658
GCGAGTCA | 0.0968
CCATATAA | -0.0614
ATAAAACA | -0.029
CACCAGAA | -0.0754
ATGTTGGG | -0.0463
ACACTGCT | -0.172
AATTTGTC | 0.105
AGCGATCA | -0.125
GCAAAACA | -0.14
CGGTTACC | 0.0385
ACGTGCAG | -0.111
CCAGGCTC | 0.116
ATTTCATG | -0.0278
ACCTGTTA | -0.202
ACGACTAA | -0.0798
ACCACCTC | -0.0862
AACGAGGT | 0.018
TCAGTGCA | 0.0709
CCACAAGC | 0.124
GTCTCGCA | 0.141

Block 6
Target: Sal-like protein 4, full length isoform A (SALL4, Homo sapiens, UniProt Q9UJQ4, residues 1-1053)
Chain of UniProt Q9UJQ4 (whole entry, looked up): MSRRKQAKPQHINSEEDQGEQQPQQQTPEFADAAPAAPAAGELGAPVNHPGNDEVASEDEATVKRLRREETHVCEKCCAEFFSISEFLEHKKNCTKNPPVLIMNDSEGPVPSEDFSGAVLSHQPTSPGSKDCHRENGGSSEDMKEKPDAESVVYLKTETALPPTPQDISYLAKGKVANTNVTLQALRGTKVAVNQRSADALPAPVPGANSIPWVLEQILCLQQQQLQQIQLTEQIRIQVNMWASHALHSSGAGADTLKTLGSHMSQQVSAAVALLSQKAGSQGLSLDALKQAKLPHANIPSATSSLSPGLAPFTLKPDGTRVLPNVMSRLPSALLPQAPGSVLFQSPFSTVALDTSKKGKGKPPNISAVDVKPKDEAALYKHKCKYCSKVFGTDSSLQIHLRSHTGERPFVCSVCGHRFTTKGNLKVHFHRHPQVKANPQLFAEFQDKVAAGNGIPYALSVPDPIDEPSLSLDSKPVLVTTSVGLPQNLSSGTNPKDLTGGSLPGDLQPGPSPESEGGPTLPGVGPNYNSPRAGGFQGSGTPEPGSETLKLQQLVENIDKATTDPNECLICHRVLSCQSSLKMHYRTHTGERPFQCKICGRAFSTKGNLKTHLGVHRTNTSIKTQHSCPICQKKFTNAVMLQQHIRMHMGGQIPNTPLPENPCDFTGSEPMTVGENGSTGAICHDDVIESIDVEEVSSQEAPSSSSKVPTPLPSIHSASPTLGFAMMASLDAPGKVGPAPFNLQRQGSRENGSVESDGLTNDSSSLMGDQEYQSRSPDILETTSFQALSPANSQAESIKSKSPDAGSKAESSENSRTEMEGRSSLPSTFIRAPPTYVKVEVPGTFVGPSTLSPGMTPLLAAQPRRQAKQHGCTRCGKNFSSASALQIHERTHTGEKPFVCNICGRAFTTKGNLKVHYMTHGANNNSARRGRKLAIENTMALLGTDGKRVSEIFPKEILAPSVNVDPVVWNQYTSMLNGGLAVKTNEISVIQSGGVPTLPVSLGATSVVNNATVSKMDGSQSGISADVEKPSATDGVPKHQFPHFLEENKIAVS
Technique: universal PBM
Molecule type: double-stranded DNA, one strand shown
Medium: in vitro
Tested at: 600 nM
Notes: 8-mer, flanks averaged, mean of replicates
Direction: higher = stronger binding
Oligonucleotide | E-score
AAGTCCGA | -0.00563
ACCGGGAC | -0.263
AACATGCC | -0.109
GAGAGTCC | -0.263
ACACAACA | 0.207
GGTCCGAC | -0.33
AACAAATG | 0.171
AGTACAAA | 0.144
CTACCTGA | -0.0789
AACGACTA | 0.132
GCACATCA | -0.0247
TTACCAAA | 0.291
ACCATCAA | 0.156
GCATGCCC | -0.213
CGCGAAAC | -0.219
CATGGCAG | -0.0337
GTTTATCA | 0.263
GCAGAGTA | 0.0665
CTCTAGCA | -0.0462
CCGTATAG | 0.0764
AAATCGTT | 0.214
CATCGACA | -0.075
CCAGAGGC | -0.255
GTGCGGCA | -0.257
CTGACTCC | -0.152

Block 7
Target: CCNA2, cyclin fold, Cln2 fusion (human)
Technique: yeast growth competition, sequencing
Medium: yeast
Notes: strong parent motif
Relative to: not given
Direction: higher = stronger binding
Parent: CDC25A docking peptide (human); PPHRRRLLFACSP
Change | normalised enrichment score
PPHRRRLLFKCSP [A10K] | 2.52
PPHRRRLLKACSP [F9K] | 1.61
PPHRRRGLFACSP [L7G] | 1.13
PSHRRRLLFACSP [P2S] | 1.33
PPHRRRLLRACSP [F9R] | 1.7
PPHRRRLLGACSP [F9G] | 1.12
PPHRRRKLFACSP [L7K] | 2.05
PPHRRRLLMACSP [F9M] | 1.37
PPHRRRLMFACSP [L8M] | 2.22
PPHRRRLLFACSV [P13V] | 1.88
PPHRRRLLFACVP [S12V] | 2.99
PPHRRRLLFACSH [P13H] | 2.09
PPHRRRLLAACSP [F9A] | 1.56
PPHRRRLLFQCSP [A10Q] | 3.3
PPHRRRLLFACDP [S12D] | 2.74
PPVRRRLLFACSP [H3V] | 5.55
PPHRRRLGFACSP [L8G] | 1.31
PPHKRRLLFACSP [R4K] | 2.59
PPHRWRLLFACSP [R5W] | 1.76
PPHWRRLLFACSP [R4W] | 1.75
PPHRRRLKFACSP [L8K] | 2.45
PPHRRGLLFACSP [R6G] | 0.32
PTHRRRLLFACSP [P2T] | 3.41
PPHRRWLLFACSP [R6W] | 1.94
VPHRRRLLFACSP [P1V] | 1.59

Mixed results
Substance | target | test | test system | conditions | scale | measurement | value
PhoQ, residues 284 288 289 292 302 303 ALSMDL | PhoP, residues 12 14 15 18 19 AQALL (Escherichia coli, UniProt P23836) | Sort-seq, item: YFP reporter | E. coli | PhoQ-PhoP variant library, added: 10 µM Mg2+ | relative to: high Mg2+ state, higher = stronger signaling | fold induction | 35.9

Some of these lines once more (block 3):
Oligonucleotide | 6-mer enrichment (R)
AGUAGG | 1.5
GCGGGA | 4.83
CGGGUA | 1.88
CGGAAG | 1.56
CUUAGU | 0.606
UGGACG | 1.51
UGAUGC | 0.798
GGGAUA | 1.83
UUGCAU | 0.651
